# Measurements collected from several papers.
# Parts stem from different laboratories: compare values within a part only. Changes are numbered by the printed parent chain.

# Block 1
# Target: Histone acetyltransferase KAT6A, both winged helices, GST fusion (KAT6A, Homo sapiens, UniProt Q92794, residues 1-181)
# Method: protein binding microarray
# Molecule type: double-stranded DNA, one strand shown
# Sample: in vitro
# Tested at: not given
# Notes: 8-mer, flanks averaged, mean of 2 arrays, mostly near background
# Baseline: not given
# Reading: higher = stronger binding
# Residues (chain): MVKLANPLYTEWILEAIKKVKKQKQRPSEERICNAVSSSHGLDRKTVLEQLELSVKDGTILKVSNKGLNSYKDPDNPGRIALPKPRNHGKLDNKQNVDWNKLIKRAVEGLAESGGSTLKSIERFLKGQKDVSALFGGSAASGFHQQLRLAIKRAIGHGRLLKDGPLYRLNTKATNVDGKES
Sequence,E-score
TATCTCAA,-0.153
CTACGTTC,-0.0371
ATTCATCA,-0.0723
AAAGCCGA,0.0555
CATCGCTC,0.109
CCGCTACC,0.232
AATATAGG,0.00916
AATTGGGC,-0.228
CCCCCGCC,0.0735
CCCGCGGA,0.263
CATTGGCA,-0.179
GTGGGTAA,-0.0519
CTTGGTTA,-0.0728
CACCCCTC,-0.119
AGGGAGCA,-0.168
AGTTAGGA,-0.0915
CCCGTCGC,0.291
ATCAATAC,-0.0458
GAAAGGGA,0.00758
ATGGACCG,0.0689
AGTGACTA,-0.0868
AGTGCAGG,-0.141
ATTTCGCG,0.281

# Block 2
# Target: CCND2, cyclin fold, Cln2 fusion (human)
# Method: yeast growth competition, sequencing
# Sample: yeast
# Notes: weak parent motif
# Baseline: not given
# Reading: higher = stronger binding
# Starting sequence: RBL1 docking peptide (human); GSAKRRLFGEDPP; partner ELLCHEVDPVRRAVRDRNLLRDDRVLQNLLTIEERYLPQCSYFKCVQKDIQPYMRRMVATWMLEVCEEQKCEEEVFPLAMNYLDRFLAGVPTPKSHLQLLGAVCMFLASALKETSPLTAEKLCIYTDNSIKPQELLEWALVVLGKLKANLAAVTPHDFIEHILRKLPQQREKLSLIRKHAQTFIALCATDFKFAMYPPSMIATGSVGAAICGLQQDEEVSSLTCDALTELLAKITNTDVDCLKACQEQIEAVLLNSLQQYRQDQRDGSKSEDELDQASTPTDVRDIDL
Change,normalised enrichment score
P12Y,0.421
G9N,0.684
A3S,0.0508
S2I,0.0551
D11C,0.592
S2T,0.135
G9T,0.465
E10T,0.0607
F8Y,0.295
A3P,0.389
G1E,0.0596
P13F,-0.0872
D11A,0.295
F8W,-0.159
F8G,0.173
E10W,0.211
R5L,0.101
K4H,-0.0146
R5A L7A,-0.224
P12L,0.387
P13Q,0.0489
E10I,0.368
A3C,0.36
G1L,0.862
G9E,0.352

# Block 3
# Target: Prothrombin, mature alpha-thrombin (F2, Homo sapiens, UniProt P00734)
# Method: aptamer microarray, sandwich
# Molecule type: DNA with 2'F-ANA
# Sample: in vitro
# Tested at: 200 nM
# Notes: whole 15-mer aptamer, many near background
# Together with: Cy3 exosite-II aptamer, 400 nM
# Reading: higher = stronger binding
# Sequence: GGTTGGTGTGGTTGG
Modification,mean fluorescence intensity [a.u.]
2'F-ANA at 1 2 3 5 9 10 15,43.9
2'F-ANA at 3 4 5 8 9 13 14,47.8
2'F-ANA at 1 2 3 4 5 6 8 9 10,51.1
2'F-ANA at 3 6 7 8 10 11 13 14 15,373
2'F-ANA at 1 3 6 7 9 14 15,78.4
2'F-ANA at 5 7 12,183
2'F-ANA at 1 5 12 13 14,41.8
2'F-ANA at 2 6 7 8 10 11 12 13 14 15,79.9
2'F-ANA at 1 2 4 6 7 10 11 12 15,54.4
2'F-ANA at 2 4 5 6 8 10 11,48.9
2'F-ANA at 2 3 8 10 12 14,352
2'F-ANA at 1 2 4 5 7 9 10 11 14,51.3
2'F-ANA at 3 11 15,1000
2'F-ANA at 1 4 5 6 7 8 10 12 14 15,46.7
2'F-ANA at 1 2 11 12 13,246
2'F-ANA at 1 3 4 5 7 9 10 11 12 13 14 15,51.7
2'F-ANA at 1 4 5 10 11 13 15,50.5
2'F-ANA at 3 5 7 9 10 11 13,58.3
2'F-ANA at 1 3 5 6 7 8 9 15,74.1
2'F-ANA at 1 3 4 7 9 13 14,59.9
2'F-ANA at 2 3 5 6 8 12 13 14 15,89.9
2'F-ANA at 1 5 7 8 9 10 13,47.3
2'F-ANA at 1 3 4 7 8 9 11 12 13 14 15,151
2'F-ANA at 4 5 10 12 13 14,116
2'F-ANA at 1 2 3 4 8 13 14 15,68.6

# Block 4
# Target: RNA binding protein fox-1 homolog 2, RRM domain, GST-SBP tag (RBFOX2, Homo sapiens, UniProt O43251-10, residues 100-194)
# Method: RNA Bind-n-Seq
# Molecule type: RNA
# Sample: in vitro
# Tested at: 365 nM
# Notes: natural RNA segment, single round, ends assumed
# Baseline: no-protein control
# Reading: higher = stronger binding
# Constant ends, left off below: GGGAGUUCUACAGUCCGACGAUC … UGGAAUUCUCGGGUGCCAA
# Construct (chain): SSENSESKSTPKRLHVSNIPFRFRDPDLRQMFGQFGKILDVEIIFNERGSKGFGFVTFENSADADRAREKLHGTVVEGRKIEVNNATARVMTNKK
Sequence,RBNS enrichment (R)
UGGCUUGUUUUUGGAAAGAAAUUCUGAAGAGAGUGGAGGAGAGGAGAAAUGUCCUCAUAUUUGAGGACCAUGAAACAUUGUAGGUAUAUAUGGGGCUUUAGCAAGUUUGA,0.835
AGUCUGAAAUUUAACGCCUACUUCCUAUAACACAUUUUAGGAUGCUUUCUGAUGAUUUAAACUUUGCAGUUUACUUUUUCAUCCUGUAUGAGAAGUACUAAGUAAGUUUA,0.286
UUAAUAAUAAUUAUUAUUAUUAUUUUCCUUCCAUGCUCCCAACUCCCUUCUGCUUGUCCCAAAUCCGCCAGUGUUUCUGAAUGUUUGUGUCUGUGGUUGCAGUCUUUCCC,1.26
UGACCAGAUUGUUUGGCUAACACAUCCCGAAGAAUGAUUUUGUCAGGAAUUAUUGUUAUUUAAUAAAUAUUUCAGGAUAUUUUUCCUCUACAAUAAAGUAACAAUUAACU,0.416
UCCUCCACACACCCUCCUUUUUUUACGGUCAAUAUAUUUGUAAAUGGUACAAGAUGAAGGACAACAACUGUCUCCAUGGGCCACGUGCCCUAGAAGGACUCUCCCCAACU,0.485
GUACCGAGCAAUGAAACUGAAGGUACAGCACUGGGCGUCUGGGGACCCCACGCUCUCCCAACGCCCAGACUAUGUGGAGCUGCCAAGCCCCUGUCUGGGCACCUCUGCCC,0.813
CUAGAGGUGUGGGGGCGAUUCUGCUAGCCUCCUGAGGGGGAGGUGUGGGGAGGGGGACCCUCUGUGGUCCCCGUGGAUCUCCUGAGAAGAUAGUCACUGGCAGAGCUCUG,0.592
GUCAGUGCUUUGUUUAGAUGAUGACUUAAGACUUUUCAGCCUGUUUUACACACCCCAGCUCCCGUUAAAUUCUCCUGUGACUGCUAACAAACCCAUGUCUGCUUUCAGAC,0.51
UUUAGUUUACAAAAGUACUGGAAACUAAAUCAUAUUUCUUCCCUCCAAAUUUCACCCAUUCCUGACUUUGAAUCAAUUGCAGAAAUGCAGGUGUGUUACUUUGUUGAUCA,0.278
AGAAAAAAUGAAUGUAUUCCUGUUUUUGAAGAGAAGAAUAAUUUUUUUUUUCUCUAGGGAGAGGUACAGUGUUUAUAUUUUGGAGCCUUCCUGAAGGUGUAAAAUUGUAA,0.538
CCUCCCAUUCCUCUGGUCCCUGCCUUGGUCCCUUGCCUGGGAAGAGGGCGAGGAGGCCAGUGGUGGGGACGCAGAGGGUCCUCAGAGCAGGAGUGACAAGGGAGGAAAGA,0.581
CCCAGACACACUCUCUGCCUGGUGGUCAGAUGCAGGUUGGAAGGGGCCUUGCUGAGUGGCGCAAGGCCGAGCGUUCCCAGCAGGGGGAGAAACCCUUCACACCCCAGGCC,0.377

# Block 5
# Target: Ras GTPase-activating protein-binding protein 1, full length (G3BP1, Homo sapiens, UniProt Q13283)
# UniProt Q13283, sequence (whole entry, looked up): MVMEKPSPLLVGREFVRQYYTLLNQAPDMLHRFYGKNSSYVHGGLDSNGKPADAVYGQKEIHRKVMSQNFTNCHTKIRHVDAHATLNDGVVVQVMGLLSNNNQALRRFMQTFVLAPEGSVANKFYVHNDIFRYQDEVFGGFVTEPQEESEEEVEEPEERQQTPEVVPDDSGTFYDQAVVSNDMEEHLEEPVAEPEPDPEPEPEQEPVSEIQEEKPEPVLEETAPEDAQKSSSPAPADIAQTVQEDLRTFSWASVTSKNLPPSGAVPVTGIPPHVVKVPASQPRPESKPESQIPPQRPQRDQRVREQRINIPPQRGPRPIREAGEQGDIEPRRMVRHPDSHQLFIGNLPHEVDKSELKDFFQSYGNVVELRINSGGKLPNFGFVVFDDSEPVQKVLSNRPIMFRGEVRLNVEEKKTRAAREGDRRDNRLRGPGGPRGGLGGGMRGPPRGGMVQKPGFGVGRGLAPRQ
# Method: RNA Bind-n-Seq
# Molecule type: RNA
# Sample: in vitro
# Tested at: 200 nM
# Notes: whole 134-nt RNA, ends assumed
# Together with: 150 mM LiCl
# Baseline: input library
# Reading: higher = stronger binding
# Each molecule: 7-deaza-guanosine replaces G
# Constant ends, left off below: GGGAGUUCUACAGUCCGACGAUC … UGGAAUUCUCGGGUGUCAAGG
Sequence,log2 enrichment
CCUGUGCUACACAUCGUAUGUACCGAAUCGGGGCCCCCCCGGGCCCCCCCGGCCCCCCCGGAAAGUAUUAUGUUACGCCGUUCGGAUCUG,0.761
GUCCUGUGCUACACAUCGUAUGUACCGAAUCGGGAAAAAGGGAAAAAAAGGGAAAGGGAAAGUAUUAUGUUACGCCGUUCGGAUCUGCAC,-0.17
ACCAUGCAGGUGGGCAUCUUAGGGAAGUGGGGCAAGGGGGGGAUAGGGAGGGGGGUAACACUUUGGGAACAGGUGGUCCCAGGUCGUUUC,0.187
ACCAUGCAGGUGGGCAUCUUUGGGAAGUGGGGCAAGGGGGGGAUAGGGAGGAGGGUAACACUUUGGGAACAGGUGGUCCCAGGUCGUUUC,0.352
UACCCUCGUGCCCCUGUUUUUCCUGGCCGUGGUAGUUACUCAAACAGAGGGAACUACAACAGAGGUGGAAUGCCCAACAGAGGGAACUAC,-1.01
CAAGUCCUGUGCUACACAUCGUAUGUACCGAAUCAAAUUUAAACCCAAAUUUAAAAAAGUAUUAUGUUACGCCGUUCGGAUCUGCACUUC,-0.887
CUCAAGUCCUGUGCUACACAUCGUAUGUACCGAAUCGGGAGGGAGGGAAAGGGAAAGUAUUAUGUUACGCCGUUCGGAUCUGCACUUCCA,0.0631
AAGUCCUGUGCUACACAUCGUAUGUACCGAAUCGGGAAAAAGGGUGGGUUUUUGGGAAAGUAUUAUGUUACGCCGUUCGGAUCUGCACUU,-1.29
CUCAAGUCCUGUGCUACACAUCGUAUGUACCGAAUCGGUGGUUUGGAAAAAGGAAAGUAUUAUGUUACGCCGUUCGGAUCUGCACUUCCA,0.016
CACAGACAACACGCACCCACACAGACACUGAGGGAAGGGGUUGGGAUGGGGACAGGGUGCACAGCAGGGCGGGGUAGGACCCCAGCCCCU,0.41
CCUCAAGUCCUGUGCUACACAUCGUAUGUACCGAAUCGGUUUGGAAAGGAGGAAAGUAUUAUGUUACGCCGUUCGGAUCUGCACUUCCAG,0.0293

# Block 6
# Target: PABPC1L2, full length, GST fusion (mouse, UniProt A0ABA7IW68)
# Method: RNAcompete
# Molecule type: RNA
# Sample: in vitro
# Tested at: 20 nM
# Notes: 7-mer, probes averaged, single round
# Baseline: mean of 7-mers
# Reading: higher = stronger binding
# Construct (chain): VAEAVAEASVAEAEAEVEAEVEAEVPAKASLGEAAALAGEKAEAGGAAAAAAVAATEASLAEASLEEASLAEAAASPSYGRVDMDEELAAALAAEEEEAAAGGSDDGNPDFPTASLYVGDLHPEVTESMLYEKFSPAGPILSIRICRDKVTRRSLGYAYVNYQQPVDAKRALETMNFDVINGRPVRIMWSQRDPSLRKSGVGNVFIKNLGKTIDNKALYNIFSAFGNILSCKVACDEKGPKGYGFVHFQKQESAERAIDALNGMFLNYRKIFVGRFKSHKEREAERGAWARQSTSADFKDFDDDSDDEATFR
Sequence,7-mer Z-score
CUAAUGG,-0.316
UUGAAUA,-0.0609
UAGUCUA,-0.229
AUGUAGG,0.117
UCUACAA,0.00798
UAGAAGU,-0.0246
AUCGUAC,-0.148
AAUCUGA,0.0678
GUACCAC,-0.0881
CACAGGG,0.0334
AUAUGGC,0.0152
GCCUGAU,-0.117
AGCUCUG,-0.331
AACUGGG,0.414
ACCUCAA,-0.00108
UAGAAAA,4.64
GUAAUGA,-0.101
ACGAGCC,-0.159
AGCCGUC,-0.374
CGUUCAA,-0.193
AGGUUUG,-0.351
UAGGCGG,0.309
UAUCCGG,-0.195
CGAGCCA,-0.182
UCUUGUU,-0.507

# Excerpt of the above (block 2):
Change,normalised enrichment score
A3C,0.36
G9E,0.352
E10I,0.368
D11C,0.592
A3P,0.389
G9T,0.465
R5A L7A,-0.224
S2T,0.135
